# Measured values of several laboratories.
# Each line is one published result; not all experiments were run side by side. ± marks the error that the study gave.
# CDK2 with cyclin A2: Cyclin-dependent kinase 2, with cyclin A2 (CDK2, Homo sapiens, UniProt P24941)
# AKR1C3: Aldo-keto reductase family 1 member C3 (AKR1C3, Homo sapiens, UniProt P42330)
# UniProt P42330, sequence (whole entry, looked up): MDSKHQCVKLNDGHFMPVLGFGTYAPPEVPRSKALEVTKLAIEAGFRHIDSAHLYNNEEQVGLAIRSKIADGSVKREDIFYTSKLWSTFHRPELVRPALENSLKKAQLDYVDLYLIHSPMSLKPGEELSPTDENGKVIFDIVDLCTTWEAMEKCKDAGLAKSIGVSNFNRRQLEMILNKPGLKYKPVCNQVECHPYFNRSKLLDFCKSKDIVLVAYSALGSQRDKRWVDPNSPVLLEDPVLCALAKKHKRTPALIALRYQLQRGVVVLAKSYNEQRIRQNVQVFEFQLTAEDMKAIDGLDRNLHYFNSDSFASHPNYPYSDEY
# SIRT6: NAD-dependent protein deacylase sirtuin-6 (SIRT6, Homo sapiens, UniProt Q8N6T7)
# UniProt Q8N6T7, sequence (whole entry, looked up): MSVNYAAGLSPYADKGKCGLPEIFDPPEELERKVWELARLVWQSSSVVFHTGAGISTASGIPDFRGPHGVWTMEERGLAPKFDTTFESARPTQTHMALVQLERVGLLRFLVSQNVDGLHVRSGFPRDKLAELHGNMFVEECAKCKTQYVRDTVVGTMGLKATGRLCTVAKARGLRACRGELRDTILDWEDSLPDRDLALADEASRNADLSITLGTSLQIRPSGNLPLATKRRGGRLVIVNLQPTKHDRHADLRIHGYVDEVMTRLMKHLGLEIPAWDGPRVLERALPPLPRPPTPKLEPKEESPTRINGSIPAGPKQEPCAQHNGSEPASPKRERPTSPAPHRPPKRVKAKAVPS
# DNMT3A catalytic domain: DNA (cytosine-5)-methyltransferase 3A, catalytic domain (DNMT3A, Homo sapiens, UniProt Q9Y6K1)
# Sialyltransferase ST3Gal-I: Sialyltransferase ST3Gal-I (Rattus norvegicus, UniProt Q6H8N0)
# Ectonucleoside triphosphate diphosphohydrolase 2: Ectonucleoside triphosphate diphosphohydrolase 2 (Homo sapiens, UniProt Q9Y5L3)
# UniProt Q9Y5L3, sequence (whole entry, looked up): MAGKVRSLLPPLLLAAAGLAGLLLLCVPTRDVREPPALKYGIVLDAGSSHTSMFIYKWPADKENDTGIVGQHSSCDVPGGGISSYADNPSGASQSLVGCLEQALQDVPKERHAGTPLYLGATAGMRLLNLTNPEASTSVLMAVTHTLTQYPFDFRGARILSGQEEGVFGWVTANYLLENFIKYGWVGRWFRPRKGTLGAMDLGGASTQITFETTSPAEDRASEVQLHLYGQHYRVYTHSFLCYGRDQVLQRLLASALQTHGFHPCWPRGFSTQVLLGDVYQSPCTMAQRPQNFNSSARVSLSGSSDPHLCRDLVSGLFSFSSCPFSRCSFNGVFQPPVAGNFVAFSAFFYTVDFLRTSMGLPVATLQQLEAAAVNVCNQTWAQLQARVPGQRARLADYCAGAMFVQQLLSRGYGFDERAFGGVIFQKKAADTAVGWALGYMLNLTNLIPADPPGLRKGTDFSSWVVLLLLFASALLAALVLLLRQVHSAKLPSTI
# MAL12: Alpha-glucosidase MAL12 (MAL12, Saccharomyces cerevisiae S288c, UniProt P53341)
# UniProt P53341, sequence (whole entry, looked up): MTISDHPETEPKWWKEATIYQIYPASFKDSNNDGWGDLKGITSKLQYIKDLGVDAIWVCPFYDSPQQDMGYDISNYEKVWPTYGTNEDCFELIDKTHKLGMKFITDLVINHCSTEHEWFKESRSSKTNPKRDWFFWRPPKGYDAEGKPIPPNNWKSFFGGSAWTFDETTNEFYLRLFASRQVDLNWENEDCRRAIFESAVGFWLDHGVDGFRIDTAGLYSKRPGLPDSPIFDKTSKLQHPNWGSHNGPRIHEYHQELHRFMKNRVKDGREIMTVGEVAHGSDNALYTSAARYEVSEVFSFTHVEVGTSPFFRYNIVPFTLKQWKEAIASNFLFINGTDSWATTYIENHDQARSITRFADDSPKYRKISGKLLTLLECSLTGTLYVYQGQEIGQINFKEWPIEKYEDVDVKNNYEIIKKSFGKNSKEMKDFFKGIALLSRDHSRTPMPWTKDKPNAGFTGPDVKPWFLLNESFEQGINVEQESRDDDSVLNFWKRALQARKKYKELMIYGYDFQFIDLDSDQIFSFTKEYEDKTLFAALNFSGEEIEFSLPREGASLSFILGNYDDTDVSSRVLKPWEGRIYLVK
# UniProt P28223, sequence (whole entry, looked up): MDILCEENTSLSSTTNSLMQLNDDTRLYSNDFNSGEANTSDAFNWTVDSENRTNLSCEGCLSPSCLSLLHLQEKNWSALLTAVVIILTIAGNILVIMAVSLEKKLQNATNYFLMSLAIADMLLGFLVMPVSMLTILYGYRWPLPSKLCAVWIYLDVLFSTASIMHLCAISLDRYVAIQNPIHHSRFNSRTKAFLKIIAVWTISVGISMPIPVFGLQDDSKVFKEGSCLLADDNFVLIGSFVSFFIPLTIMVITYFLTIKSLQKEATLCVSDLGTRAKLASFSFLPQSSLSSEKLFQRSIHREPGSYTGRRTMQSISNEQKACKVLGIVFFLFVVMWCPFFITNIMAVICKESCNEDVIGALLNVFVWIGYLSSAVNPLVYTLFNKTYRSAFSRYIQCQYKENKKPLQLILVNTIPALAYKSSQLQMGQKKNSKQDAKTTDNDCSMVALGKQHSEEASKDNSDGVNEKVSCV
# UniProt P35968, sequence (whole entry, looked up): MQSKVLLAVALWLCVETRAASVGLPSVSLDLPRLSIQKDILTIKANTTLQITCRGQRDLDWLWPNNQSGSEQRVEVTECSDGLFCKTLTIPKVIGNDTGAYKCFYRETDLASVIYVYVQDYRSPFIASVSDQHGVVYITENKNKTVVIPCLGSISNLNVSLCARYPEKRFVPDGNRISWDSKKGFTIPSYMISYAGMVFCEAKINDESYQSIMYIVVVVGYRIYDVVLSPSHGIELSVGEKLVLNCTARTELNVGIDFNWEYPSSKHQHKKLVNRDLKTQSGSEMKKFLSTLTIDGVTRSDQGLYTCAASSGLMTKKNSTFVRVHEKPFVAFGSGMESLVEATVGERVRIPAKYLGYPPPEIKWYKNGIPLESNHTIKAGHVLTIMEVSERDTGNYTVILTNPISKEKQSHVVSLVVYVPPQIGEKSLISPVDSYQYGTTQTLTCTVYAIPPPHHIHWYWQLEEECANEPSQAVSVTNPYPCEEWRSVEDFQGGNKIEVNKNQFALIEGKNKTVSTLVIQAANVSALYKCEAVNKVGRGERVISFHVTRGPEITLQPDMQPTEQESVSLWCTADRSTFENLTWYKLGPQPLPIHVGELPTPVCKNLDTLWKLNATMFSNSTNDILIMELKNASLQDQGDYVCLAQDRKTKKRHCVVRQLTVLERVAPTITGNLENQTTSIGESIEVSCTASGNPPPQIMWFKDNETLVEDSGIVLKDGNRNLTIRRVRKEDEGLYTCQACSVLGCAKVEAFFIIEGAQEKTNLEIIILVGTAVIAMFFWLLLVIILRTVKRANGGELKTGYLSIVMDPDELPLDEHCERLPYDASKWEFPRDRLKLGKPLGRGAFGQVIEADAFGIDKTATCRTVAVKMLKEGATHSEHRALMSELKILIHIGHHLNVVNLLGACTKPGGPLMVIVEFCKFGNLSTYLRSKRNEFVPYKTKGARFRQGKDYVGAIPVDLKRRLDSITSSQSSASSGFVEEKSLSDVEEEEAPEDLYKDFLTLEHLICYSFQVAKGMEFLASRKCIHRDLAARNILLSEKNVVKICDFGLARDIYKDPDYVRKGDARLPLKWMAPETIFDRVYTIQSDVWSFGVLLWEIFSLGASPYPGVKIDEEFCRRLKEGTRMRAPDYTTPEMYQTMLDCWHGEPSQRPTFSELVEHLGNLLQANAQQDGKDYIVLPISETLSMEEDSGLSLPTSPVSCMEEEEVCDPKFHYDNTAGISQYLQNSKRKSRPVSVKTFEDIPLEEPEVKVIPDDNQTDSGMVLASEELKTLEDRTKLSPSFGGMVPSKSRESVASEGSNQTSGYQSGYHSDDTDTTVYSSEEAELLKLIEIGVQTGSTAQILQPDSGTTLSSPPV
# UniProt Q96RI1, sequence (whole entry, looked up): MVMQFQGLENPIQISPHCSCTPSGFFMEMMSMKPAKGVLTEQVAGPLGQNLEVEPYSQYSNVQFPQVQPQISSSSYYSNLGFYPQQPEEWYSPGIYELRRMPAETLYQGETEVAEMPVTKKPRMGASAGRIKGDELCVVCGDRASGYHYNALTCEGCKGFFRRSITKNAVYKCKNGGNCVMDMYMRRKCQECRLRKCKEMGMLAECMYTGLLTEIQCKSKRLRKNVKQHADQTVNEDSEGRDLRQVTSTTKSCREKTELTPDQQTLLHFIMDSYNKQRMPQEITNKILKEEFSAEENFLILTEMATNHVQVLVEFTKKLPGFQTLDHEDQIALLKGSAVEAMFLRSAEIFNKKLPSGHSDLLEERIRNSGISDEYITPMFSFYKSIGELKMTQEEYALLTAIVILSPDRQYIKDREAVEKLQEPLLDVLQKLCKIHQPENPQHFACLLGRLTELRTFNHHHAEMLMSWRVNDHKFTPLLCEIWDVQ
SMILES,target,test,test system,setting,inhibition
COc1cc(C(=O)NC2CCC(N3CCN(CC4CCC5(CCCC5)C4)CC3)CC2)c(F)cc1Nc1ncc2c(n1)N(C1CCCC1(F)F)CC(F)(F)C(=O)N2C (stereo not shown),"KDR (Homo sapiens, UniProt P35968)","cell-free assay, TR-FRET",,10 µM,0.14%
CC(C)Cn1cc(-c2nc(Nc3ccc(OCCCCCCC(=O)NO)cc3)ncc2F)nn1,CDK2 with cyclin A2,"enzyme activity, inhibitor, TR-FRET",,5 µM,60%
COc1ccc2c(c1Cl)CC[C@@H]1[C@@H]2CC[C@@]2(C)C(=O)CC[C@@H]12,AKR1C3,"enzyme activity, inhibitor, absorbance",,"100 µM, pH 9",≥ 80%
CCCCCCCCCCCCCC(=S)NCCCC[C@H](NC(=O)CNC(=O)CN)C(=O)NCC(=O)O,SIRT6,"enzyme activity, inhibitor",,50 µM,18%
O=[N+]([O-])c1cccc(S(=O)(=O)NC[C@@H](O)[C@@H]2CCc3cc(F)ccc3O2)c1,"PTGS2 (Ovis aries, UniProt P79208)","enzyme activity, inhibitor, absorbance",,100 µM,39.9%
CC(C)C[C@H](NC(=O)[C@@H]1CCCN1C(=O)[C@@H]1CCCN1C(=O)[C@H](CC(N)=O)NC(=O)[C@@H](N)Cc1ccc(Cl)c(Cl)c1)C(=O)N[C@@H](Cc1c[nH]cn1)C(=O)N[C@@H](CO)C(=O)N[C@H](C(=O)N[C@@H](C)C(=O)O)[C@@H](C)OP(=O)(O)O,"PLK3 (Homo sapiens, UniProt Q9H4B4)","enzyme activity, inhibitor",,10 µM,6.92%
Cc1cc(Nc2ccc(NC(=O)c3ccc(Nc4c5ccccc5nc5ccccc45)cc3)cc2)nc(N)n1,DNMT3A catalytic domain,"enzyme activity, inhibitor",,32 µM,53 ± 2%
CCOC(=O)c1cc2c(N)c(C(=O)OC)sc2nc1C,"Urea transporter 1 (Homo sapiens, UniProt Q13336)","urea transport, inhibitor",MDCK expressing Urea transporter 1,concentration not given,35%
NOCC(=O)O,"CBS (Homo sapiens, UniProt P35520)","enzyme activity, inhibitor",,100 µM,76%
COc1ccc(-c2cc(C(F)(F)F)cc(S(=O)(=O)NCC(=O)Nc3ccc(C)cc3)n2)cc1,"WRN (Homo sapiens, UniProt Q14191)","ATPase activity, ADP-Glo",,concentration not given,inactive
C[C@H](CCC(c1c[nH]c2ccccc12)c1c[nH]c2ccccc12)[C@H]1CC[C@H]2[C@@H]3CC[C@@H]4C[C@H](O)CC[C@]4(C)[C@H]3CC[C@]12C,Sialyltransferase ST3Gal-I,"enzyme activity, inhibitor, UPLC",,500 µM,100%
Oc1c(C(Nc2nccs2)c2cccc(OCc3ccccc3)c2)ccc2cccnc12 (stereo not shown),"Genome polyprotein, protease (Dengue virus type 2, UniProt P14340)","enzyme activity, inhibitor, fluorescence",,25 µM,83.4%
CC(C)(C)CCN1C[C@@H]2[C@@H](CNC(=O)c3cc(Cl)cc(Cl)c3)[C@@H]2C1.Cl,"Voltage-dependent L-type calcium channel subunit alpha-1F (Homo sapiens, UniProt O60840, M1426A)","calcium current, whole-cell patch clamp",HEK-293T transfected,"10 µM, M1426A mutant",~50%
NC(=O)c1ccc(C(=O)NOCc2ccc(Sc3cccc(Cl)c3)c(C(F)(F)F)c2)cc1,"HDAC5 (Homo sapiens, UniProt Q9UQL6)","cell-free assay, inhibitor",,100 µM,9.1%
C[C@H](CCC(=O)N[C@H](CC(c1c[nH]c2ccc([N+](=O)[O-])cc12)c1c[nH]c2ccc([N+](=O)[O-])cc12)C(=O)O)[C@H]1CC[C@H]2[C@@H]3CC[C@@H]4C[C@H](O)CC[C@]4(C)[C@H]3CC[C@]12C,Sialyltransferase ST3Gal-I,"enzyme activity, inhibitor, UPLC",,500 µM,3%
Nc1ccccc1NC(=O)c1ccc(Nc2nccc(-c3cn(C4CCCC4)nn3)n2)cc1,CDK2 with cyclin A2,"enzyme activity, inhibitor, TR-FRET",,5 µM,20.2%
CC1(CN)CCN(c2cnc(Sc3cccc(Cl)c3Cl)c(N)n2)CC1,"PTPN11 (Homo sapiens, UniProt Q06124)",enzyme activity,,"concentration not given, with: DiFMUP",no inhibition
Oc1c(C(Nc2nc3ccccc3s2)c2ccccc2OCc2ccccc2)ccc2cccnc12 (stereo not shown),"Genome polyprotein, NS2B-NS3 protease (Dengue virus type 2, UniProt P14340)","enzyme activity, inhibitor, fluorogenic",,"25 µM, 0.1% CHAPS, with: Bz-Nle-Lys-Arg-Arg-AMC substrate",91.8 ± 1.18%
CC(C)CCC[C@@H](C)[C@H]1CC[C@@H]([C@@H]2CC[C@H]3C[C@H](O)CC[C@]3(C)C2=O)[C@]1(C)CC(=O)NCCS(=O)(=O)O,"Bile acid receptor (NR1H4, Homo sapiens, UniProt Q96RI1)","reporter gene, antagonist, luciferase",HEK-293T,10 µM,0.7%
COc1cc2c(cc1Cl)[C@H]1CC[C@@]3(C)C(=O)CC[C@H]3[C@@H]1CC2,AKR1C3,"enzyme activity, inhibitor, absorbance",,"10 µM, pH 9",60%
CCCC[C@H](NC(C)=O)C(=O)N[C@@H](CO)C(=O)N[C@H](C(=O)N1CCC[C@H]1C(=O)N[C@]1(C)CCCCCCC=CCCC[C@@](C)(C(=O)N[C@@H](Cc2ccccc2)C(=O)N[C@@H](CCCCN)C(=O)N[C@@H](CCCNC(=N)N)C(=O)N[C@@H](CC(C)C)C(=O)N[C@@H](CCC(N)=O)C(N)=O)NC(=O)[C@H](CCCNC(=N)N)NC(=O)[C@H](CCCC)NC(=O)[C@H](CC(C)C)NC(=O)[C@H](CCCNC(=N)N)NC(=O)[C@H](CCCNC(=N)N)NC(=O)[C@H](CCCNC(=N)N)NC1=O)[C@@H](C)O,"Very long-chain specific acyl-CoA dehydrogenase, mitochondrial (Homo sapiens, UniProt P49748)",inhibitor,,"43.2 µM, 30-fold excess",no inhibition
CC(=O)c1cnc(N)nc1N1CC[C@H]1c1nn2ccc(Cl)c2c(=O)n1-c1ccccc1,"Sulfonylurea receptor 2, Kir6.2 (Homo sapiens, UniProt O60706+Q14654)",ion current,,3 µM,< 10%
N[C@H]1CCCc2c1[nH]c1ccc(Cl)cc21,"HTR2A (Homo sapiens, UniProt P28223)","radioligand binding, agonist radioligand displacement",,10 µM,55.6 ± 1.7%
Cc1ccc(NC(=O)c2cccc(S(=O)(=O)N3CCOCC3)c2)c(C)c1,Ectonucleoside triphosphate diphosphohydrolase 2,"enzyme activity, inhibitor, absorbance",,100 µM,31%
CC(=O)Nc1cc(COc2c(Cl)cc(CC(N)C(=O)O)cc2Cl)c2oc(-c3ccccc3)nc2c1 (stereo not shown),"SLC1A5 (Homo sapiens, UniProt Q15758)",L-alanine uptake,Xenopus oocytes,"1 and 10 µM, 30 min, with: L-[14C]alanine 50 µM",no inhibition
COc1ccc2c(c1)CC[C@@H]1[C@@H]2CC[C@@]2(C)C(=O)CC[C@@H]12,AKR1C3,"enzyme activity, inhibitor, absorbance",,"10 µM, pH 9",22.9%
Cc1cc(Nc2ccc(NC(=O)c3ccc(NC(=O)c4ccnc5ccccc45)cc3)cc2)nc(N)n1,DNMT3A catalytic domain,"enzyme activity, inhibitor",,32 µM,8%
COc1ccc(NC(=S)Nc2cccc3[nH]ccc23)cc1,"Microtubule-associated protein tau, 2N3R isoform (MAPT, Homo sapiens, UniProt P10636)","tau fibril formation, ThT fluorescence",,"100 µM, tau at 10 µM",70%
C[C@]12CC[C@@H]3c4ccc(O)c(I)c4CC[C@H]3[C@@H]1CCC2=O,AKR1C3,"enzyme activity, inhibitor, absorbance",,"10 µM, pH 9",36.4%
NC(=O)c1cn(CC(=O)NC[C@H](NC(=O)CCc2nc(-c3cccnc3)no2)C(=O)NCCc2ccccc2)c(=O)[nH]c1=O,SIRT6,demyristoylation,,10 µM,29%
C[C@@]12CC[C@@H]3c4cc(Br)c(O)c(Br)c4CC[C@H]3[C@@H]1CCC2=O,AKR1C3,"enzyme activity, inhibitor, absorbance",,"10 µM, pH 9",27.9%
Cc1ccc(S(=O)(=O)N2CCC2=O)cc1,"Rhomboid protease AarA (Providencia stuartii, UniProt P46116)","enzyme activity, inhibitor, fluorogenic peptide",,concentration not given,inactive
COC(=O)[C@H]1C[C@H](NC(=O)[C@H](CNC(=O)Cn2cc(C(N)=O)c(=O)[nH]c2=O)NC(=O)CCc2nc(-c3cccnc3)no2)C1,SIRT6,demyristoylation,,10 µM,34%
O=C(O)c1cccc(S(=O)(=O)NC2CC2)c1,Ectonucleoside triphosphate diphosphohydrolase 2,"enzyme activity, inhibitor, absorbance",,100 µM,10%
C[C@H](CCC(=O)N[C@H](CC(c1c[nH]c2ccc(F)cc12)c1c[nH]c2ccc(F)cc12)C(=O)O)[C@H]1CC[C@H]2[C@@H]3CC[C@@H]4C[C@H](O)CC[C@]4(C)[C@H]3CC[C@]12C,Sialyltransferase ST3Gal-I,"enzyme activity, inhibitor, UPLC",,500 µM,1%
Cc1cccc(/C=C/C(=O)c2cnn(-c3ccccc3)c2C)c1,MAL12,"enzyme activity, inhibitor",,40 µM,11.8%
O=C(NCc1nc(-c2ccc(Br)cc2)c[nH]1)Nc1ncc(Sc2ccccn2)s1,"Enoyl-[acyl-carrier-protein] reductase [NADPH] FabI (Staphylococcus aureus, UniProt Q6GI75)","enzyme activity, inhibitor, absorbance",,10 µM,22.4%
C[C@]12CCC[C@H]1[C@@H]1CCc3c(cc(I)c(O)c3I)[C@H]1CC2,AKR1C3,"enzyme activity, inhibitor, absorbance",,"10 µM, pH 9",11.4%
COc1c(-c2cccc(O)c2)oc2c(OC)c(O)cc(O)c2c1=O,MAL12,"enzyme activity, inhibitor, absorbance",,2.5 µM,20.2%
COc1ccc2c(c1)CC[C@@H]1[C@@H]2CC[C@@]2(C)CCC[C@@H]12,AKR1C3,"enzyme activity, inhibitor, absorbance",,"100 µM, pH 9",49.2%
C[C@H](CCC(=O)N[C@H](CC(c1c[nH]c2ccccc12)c1c[nH]c2ccccc12)C(=O)O)[C@H]1CC[C@H]2[C@@H]3CC[C@@H]4C[C@H](O)CC[C@]4(C)[C@H]3CC[C@]12C,Sialyltransferase ST3Gal-I,"enzyme activity, UPLC",,500 µM,3%
C[C@@]12CC[C@@H]3c4ccc(O)cc4CC[C@H]3[C@@H]1CCC2=O,AKR1C3,"enzyme activity, inhibitor, absorbance",,"10 µM, pH 9",22.5%
O=C(CCCCCCN1CCN(c2ccc(Nc3ncc(F)c(-c4cn(C5CCCC5)nn4)n3)cc2)CC1)NO,CDK2 with cyclin A2,"enzyme activity, inhibitor, TR-FRET",,5 µM,41.6%

# Excerpt of the above:
SMILES,target,test,test system,setting,inhibition
O=C(CCCCCCN1CCN(c2ccc(Nc3ncc(F)c(-c4cn(C5CCCC5)nn4)n3)cc2)CC1)NO,CDK2 with cyclin A2,"enzyme activity, inhibitor, TR-FRET",,5 µM,41.6%
COc1ccc2c(c1)CC[C@@H]1[C@@H]2CC[C@@]2(C)CCC[C@@H]12,AKR1C3,"enzyme activity, inhibitor, absorbance",,"100 µM, pH 9",49.2%
